Measurements collected from several papers.
± gives the spread as reported.
Cell line: MCF7

SMILES | test | conditions | IC50
CCC(C(=O)O)C1CCC(C)C(C(C)C(O)C(C)C(=O)C(CC)C2OC3(C=CC(NCc4cn(CSc5ccccc5)nn4)C4(CCC(C)(C5CCC(O)(CC)C(C)O5)O4)O3)C(C)CC2C)O1 (stereo not drawn) | cell growth or viability, resazurin | 72 h | 0.1 µM
COc1cc(/C=C/C(=O)/C=C(O)/C=C/c2ccc(OCC(=O)N3CCOCCOCCOCCOCCOCC3)c(OC)c2)ccc1OCC(=O)N1CCOCCOCCOCCOCCOCC1 | cell growth or viability, SRB |  | 4.8 µM
CSc1nc(Nc2cccc(/C(C)=N/NC(=O)c3ccc(N)cc3)c2)c(C#N)c(-c2ccccc2)n1 | cell growth or viability, MTT | 48 h | 21.7 µM
CC1=NN(c2ccccc2)C(c2ccccc2)C1 (stereo not drawn) | cell growth or viability, LDH | 48 h | 7.5 µM
CC(=O)Oc1ccc(Br)cc1-c1cnc2ccccc2n1 | cell growth or viability, MTT | 48 h | 20.8 µM
Cc1ccc(CN2C(=O)/C(=N\c3ccc(Cl)cc3Br)c3ccccc32)cc1 | cell growth or viability, MTT | 48 h | 3.04 µM
CC(=O)N[C@H]1C(n2cc([C@@](C)(O)c3cccc(F)c3)nn2)O[C@H](COCc2ccccc2)[C@H](OCc2ccccc2)[C@@H]1OCc1ccccc1 (stereo partly drawn) | cell growth or viability, MTS | 72 h | > 100 µM
COc1ccc2cc3[n+](cc2c1OCc1cn(Cc2ccc(S(C)(=O)=O)cc2)nn1)CCc1cc2c(cc1-3)OCO2 | cell growth or viability, MTT |  | 207 µM
COc1ccc(-c2c(C#N)c(N)n(-c3nnc(NC(=O)c4ccccc4)s3)c(=O)c2C#N)cc1 | cell growth or viability, MTT | 48 h | 41.6 µM
CN1CCC2(CC1)C/C(=N\NC(=O)Nc1ccccc1)c1ccccc1O2 | cell growth or viability, MTT | 48 h | 1.67 µM
CC(C)(C)C12CC(CN3CCN(C(c4ccccc4)c4ccc(Cl)cc4)CC3)(C1)C2 (stereo not drawn) | cell growth or viability, resazurin |  | 24.5 µM
Cc1ccc(-c2nc(-c3cccnc3)[nH]c2-c2ccc(C)cc2)cc1 | cell growth or viability, SRB | 48 h | > 100 µM
[Cl][Au+][Cl].[O-][Cl+3]([O-])([O-])[O-].c1ccc(P(=NCc2ccccn2)(c2ccccc2)c2ccccc2)cc1 | cell growth or viability, MTT | 74 h | 30 µM
C[C@]12CC/C(=N\O)C=C1CCC1C2CC[C@]2(C)/C(=C/c3ccccn3)CCC12 (stereo partly drawn) | cell growth or viability, MTT | 72 h | 41 µM
Cc1c(C)c(C)[c-](C)c1C.Fc1c[c-]c(-c2ccccn2)cc1.[Cl-].[Ir+3] | SRB | 24 h, 72 h recovery | 4.8 ± 0.3 µM
CC=C(C)C(=O)OC1C(O)C2(CO)C(CC1(C)C)C1=CCC3C4(C)CCC(O)C(C)(CO)C4CCC3(C)C1(C)C(O)C2O (stereo not drawn) | cell growth or viability, CCK-8 | 48 h | 51.5 µM
CC(C)(C)c1cc2c(O)c(c1)Cc1cc(C(C)(C)C)cc(c1OCC(=O)NCc1cccnc1)Cc1cc(C(C)(C)C)cc(c1O)Cc1cc(C(C)(C)C)cc(c1OCC(=O)NCc1cccnc1)COC2 | cell growth or viability, MTT | 72 h | 4.1 µM
C/C1=C/C[C@H]2[C@@H]3[C@@H]([C@@]4(C)CO4)CC[C@@]3(C)CC[C@]2(C)C[C@H]2[C@@H](C)CC[C@@H]12 | cell growth or viability, MTT | 72 h | 30 µM
CS/C(=N\N=C(/C)c1ccc(S(=O)(=O)N2CCC(C)CC2)cc1)N1CCCCC1 | cell growth or viability, MTT |  | 46.3 µM
Cn1ccn(N=Cc2ccccc2SSc2ccccc2C=Nn2ccn(C)c2=S)c1=S | cell growth or viability, MTT | 72 h | 0.36 µM
Cc1cccc2c1NC(=O)C21C2=C(COC2=O)NC2=C1C(=O)c1ccccc1C2=O (stereo not drawn) | cell growth or viability, MTT | 72 h | 18.8 µM
C/C(=N\NC(=S)NN)c1ccc(S(=O)(=O)N2CCC(C)CC2)cc1 | cell growth, MTT |  | 24.6 to 122 µM
O=C(NCCN1CCOCC1)c1cc2c3ccccc3n3c(=O)ccc(n1)c23 | cell growth or viability, MTT | 72 h | 2.9 µM
CC1(C)c2ccccc2-c2ccc(-c3cn(-c4ccc(-c5cc(-c6ccccn6)nc(-c6ccccn6)c5)cc4)nn3)cc21 | cell growth or viability, MTS | 72 h | 1.07 µM
CSC(=S)N/N=C(\C)c1ccc(Nc2nnc(-c3ccc(Cl)cc3)c3ccccc23)cc1 | cell growth or viability, MTT |  | 0.28 µM
CCCCCCCCCCCCCCn1c(-c2cccnc2)nc(-c2ccc(C)cc2)c1-c1ccc(C)cc1 | cell growth or viability, SRB | 48 h | > 100 µM
COc1ccc2cc3[n+](cc2c1OCc1cn(Cc2ccccc2Cl)nn1)CCc1cc2c(cc1-3)OCO2 | cell growth or viability, MTT |  | 79.7 µM

SMILES | test | conditions | IC50
Nn1c(SCC(=O)N2CCC(=C3c4ncccc4CCc4cc(Cl)cc(Br)c43)CC2)nnc1-c1ccccc1 | cell growth or viability, SRB |  | 27 µM
CC(=O)OC[C@H]1O[C@@H](Sc2nc3c4cnn(C(=O)CNc5ccc(C)cc5)c4ncn3n2)[C@H](OC(C)=O)[C@@H](OC(C)=O)[C@@H]1OC(C)=O | cell growth or viability, MTT | 48 h | 0.045 µM
NS(=O)(=O)c1ccc(/N=N/c2ccc(O)c(/C=N/c3ccccn3)c2)cc1 | cell growth or viability, MTT | 48 h | 4.85 µM
CN1CCC2(CC1)C/C(=N\NC(=O)Nc1ccc([N+](=O)[O-])cc1)c1ccccc1O2 | cell growth or viability, MTT | 48 h | 10.8 µM
CC(C)c1cccc(C(C)C)c1-n1ccn(-c2c(C(C)C)cccc2C(C)C)c1=[Se].[Cl][Au] | cell growth or viability, MTT | 72 h | 7.4 µM
COc1c(O)cc2oc3c(Cl)c(O)c(CC=C(C)C)c(O)c3c(=O)c2c1CC=C(C)C | cell growth or viability | 48 h | > 40 µM
O=C1C=C(c2coc3cc(O)cc(O)c3c2=O)C(=O)C([N+](=O)[O-])=C1O | cell growth or viability, MTT | 72 h | 45.9 µM
N=C(N)NCCC[C@H](N)C(=O)NC(CC(=O)N[C@@H](Cc1ccccc1)C(=O)N[C@@H](CC(=O)O)C(=O)O)c1ccc2ccccc2c1 (stereo partly drawn) | cell growth or viability, ATP luminescence | 72 h | 45 µM
CCN(CC)c1ccc2c(c1)[O][Pt-2]1([Cl])[N+](=C2)c2ccccc2[NH+]1c1ccccc1 (stereo not drawn) | cell growth or viability, MTT |  | 14 µM
CC[C@@]1(C)CC[C@H]2[C@@](C)(CC[C@@]3(C)[C@@H]4CC(C)(C)CC[C@]4(C)CC[C@]23C)[C@@H]1CCC(=O)O | cell growth or viability, SRB |  | 27 µM
CSc1nc(Nc2ccc(/C(C)=N/NC(=O)c3ccc([N+](=O)[O-])cc3[N+](=O)[O-])cc2)c(C#N)c(-c2ccccc2)n1 | cell growth or viability, MTT | 48 h | 1.54 µM
Cc1c(-c2cccc(C3=NCCN3)c2)oc(-c2cccc(C3=NCCN3)c2)c1C | cell growth or viability, SRB |  | 0.9 µM
Cc1ccc(/C=N/NC(=O)c2cc3cc(Nc4nccc(-c5cccnc5)n4)ccc3[nH]2)cc1 | cell growth or viability, MTT | 48 h | 2.7 µM
C=CC(OC(C)=O)c1ccccc1 (stereo not drawn) | MTT | 24 h | > 50 µM
CCC1=C(CC)C2=[N+]3C1=Cc1c(CC)c(CC)c4[n]1[Ir-3]31([Cl])([C]#[O+])[n]3c(c(CC)c(CC)c3=CC3=[N+]1C(=C4)C(CC)=C3CC)=C2 | cell growth or viability, MTT | 72 h | > 50 µM
Cc1cc(N2CCN(C(=O)CN3CCN(C)CC3)CC2)n2ncnc2n1 | cell growth or viability, MTT |  | 56 µM
C[C@@H]1CC[C@@H]([C@](O)(CNCc2cccc(F)c2)COCc2ccccc2)[C@H](OCc2ccccc2)C1 | cell growth or viability, MTT | 72 h | 1.1 µM
CC(=O)O[C@H]1C[C@H](O[C@H]2[C@@H](O)C[C@H](O[C@H]3[C@@H](O)C[C@H](O[C@H]4CC[C@@]5(C)[C@H](CC[C@@H]6[C@@H]5CC[C@]5(C)[C@@H](C7=CC(=O)OC7)CC[C@]65O)C4)O[C@@H]3C)O[C@@H]2C)O[C@H](C)[C@H]1O[C@@H]1O[C@H](CO)[C@@H](O[C@@H]2O[C@H](CO)[C@@H](O)[C@H](O)[C@H]2O)[C@H](O)[C@H]1O | cell growth or viability, MTT | 48 h | 0.22 µM
CCCCCCCCCCCCCCCOC(=O)/C=C/c1cccc(O)c1 | cell viability, MTT | 48 h, serum-free medium | 1.1 ± 0.2 µg/mL
Cc1cc(-c2ccccc2)c2ccc3c(-c4ccccc4)cc(C)[n+]4c3c2[n+]1[Re-2]4(=[C]=O)(=[C]=O)(=[C]=O)[O]C(=O)c1cccnc1 | cell growth or viability, resazurin | 72 h | 1.33 µM
O=C(NCCCCCCNc1n[n+]([O-])c2ccccc2[n+]1[O-])C(F)(F)F | cytotoxicity, MTT | 24 h, normoxia | > 107 µM
COc1ccc(-c2noc(NC(=O)c3ccc(F)c(C(F)(F)F)c3)c2C#N)c(OC)c1 | cytotoxicity, MTT | 72 h | 14.7 µM
CC(=O)O[C@@H]1C[C@H]2C(C)(C)[C@H](O)CC[C@]2(C)[C@H]2CC[C@]34C[C@]3(CC[C@H]4[C@@H](C)C[C@@H](O)[C@H](O)C(C)(C)O)[C@@]21C | cell growth or viability, MTT |  | 6.1 µM
CC(C)=CCC1=C([O-])C(=O)c2ccccc2C1=O.CC(C)=CCC1=C([O-])C(=O)c2ccccc2C1=O.[Cu+2].c1ccc(-c2ccnc3c2ccc2c(-c4ccccc4)ccnc23)cc1 | cell viability, MTT | 24 h | 0.9 ± 0.3 µM
COc1cc(C(=O)c2[nH]c(N)nc2-c2cccs2)cc(OC)c1OC | cell growth or viability, SRB |  | 0.121 µM
CCCCCC(C)n1c(-c2cccnc2)nc(-c2ccc(C)cc2)c1-c1ccc(C)cc1 (stereo not drawn) | cell growth or viability, SRB | 24 h | 48.1 µM
CCCC(CCC)C(=O)[O][Pt]([Cl])([Cl])[O]C(=O)C(CCC)CCC.N.N | cytotoxicity | 72 h | 0.91 ± 0.3 µM

Excerpt of the above:
SMILES | test | conditions | IC50
CS/C(=N\N=C(/C)c1ccc(S(=O)(=O)N2CCC(C)CC2)cc1)N1CCCCC1 | cell growth or viability, MTT |  | 46.3 µM
Cn1ccn(N=Cc2ccccc2SSc2ccccc2C=Nn2ccn(C)c2=S)c1=S | cell growth or viability, MTT | 72 h | 0.36 µM
Cc1cccc2c1NC(=O)C21C2=C(COC2=O)NC2=C1C(=O)c1ccccc1C2=O (stereo not drawn) | cell growth or viability, MTT | 72 h | 18.8 µM
